Measured values pooled from the literature.
Numbered parts are unrelated; each lists some results of a single study.

Series 1
Target: Prothrombin, mature alpha-thrombin (F2, Homo sapiens, UniProt P00734)
Technique: aptamer microarray, sandwich
Molecule type: DNA with 2'F-ANA
Medium: in vitro
Tested at: 200 nM
Setting: whole 15-mer aptamer, many near background
Together with: Cy3 exosite-II aptamer, 400 nM
Reading: higher = stronger binding
Strand: GGTTGGTGTGGTTGG
Modification	mean fluorescence intensity [a.u.]
2'F-ANA at 3 4 5 6 9 14 15	143
2'F-ANA at 1 7 11	177
2'F-ANA at 1 2 3 4 6 8 9 11 12 14 15	71.2
2'F-ANA at 3 6 10 12 13	522
2'F-ANA at 3 4 5 6 10 11 12 14 15	48.3
2'F-ANA at 1 2 6 7 8 9 12 13	265
2'F-ANA at 1 4 5 6 7 10 12 13	50.5
2'F-ANA at 1 2 3 6 7 9 10 13 14	53.2
2'F-ANA at 3 6 7 8 10 11 13 14 15	373
2'F-ANA at 1 2 6 7 10 12 15	72.1
2'F-ANA at 4 5 6 8 10	44.6
2'F-ANA at 1 2 5 7 8 12 14 15	62.2
2'F-ANA at 1 2 4 5 6 7 8 10 11 12 14 15	52.9
2'F-ANA at 3 4 7 8 9 10 11 12 14	348
2'F-ANA at 3 5 6 8 9 10 11 13 14	54.2
2'F-ANA at 1 2 3 4 5 6 9 11	54
2'F-ANA at 4 5 6 7 12 13	92.6
2'F-ANA at 1 2 3 6 7 10 14 15	60.8
2'F-ANA at 2 3 7 8 9 10 11 13 14 15	260

Series 2
Target: RNA binding protein fox-1 homolog 2, RRM domain, GST-SBP tag (RBFOX2, Homo sapiens, UniProt O43251-10, residues 100-194)
Technique: RNA Bind-n-Seq
Molecule type: RNA
Medium: in vitro
Tested at: 365 nM
Setting: natural RNA segment, single round, ends assumed
Baseline: no-protein control
Reading: higher = stronger binding
Target sequence (chain): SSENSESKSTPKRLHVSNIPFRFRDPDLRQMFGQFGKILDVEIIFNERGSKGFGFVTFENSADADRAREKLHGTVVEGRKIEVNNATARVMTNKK
Strand	RBNS enrichment (R)
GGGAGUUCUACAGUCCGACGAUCUACACCUCAAAUUUGGAAAGUUGCCCCAUCUCUCCCCCCCAACCCAUGCCCCUGCUCACCUCUGCCAGGUCCCAGCUUGACCUACUGGGUCAAGGCCAGCCUCGGUGAUGUGGAAUUCUCGGGUGCCAA	0.29
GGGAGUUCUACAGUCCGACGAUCCAGGCUCCCAGUGCAGCCUCCUCUUGCUACGCCAUGCCACCCCCAUUCACAGGGAAACCUCUUUCCUUCCUAUAAAGGAAAGAGGUUGAAUUGACUCACAUUUCCACAUGUGGAAUUCUCGGGUGCCAA	0.38
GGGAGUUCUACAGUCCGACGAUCCCUUCAGCGCUGCAGAGCAGUAAGCUAUCCAUCCAGUGAGUGUGGCGGCUCUUUCUACAGCUGAACUCCUCCUCAGUUGAGUUUUCAGUUUCUGGCUUGCUUCUCCCUUUUGGAAUUCUCGGGUGCCAA	0.508
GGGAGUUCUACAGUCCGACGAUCCAUCUGUCAGUCAGGUUGUAUGGGCUGGAGGCUGGCAGGUCUGCAUGGUAGGCUGAGUUUGCUGUCCAAUAGCUGUGUGACUUUGGGCAAGUCCCAGUCACCUUCCUGGCUGGAAUUCUCGGGUGCCAA	1.13
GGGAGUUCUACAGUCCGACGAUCCAGCUCUUGUGCCAAGGAGGAGUGGUUGUUGUUGUUUUGUUUUGAAGACUUAAACUCUGCACAAAGAUCCUGGUUCAGCUGUGUACUAUAGGUUGGUAGGAAGUGUCGUGUGGAAUUCUCGGGUGCCAA	3.22
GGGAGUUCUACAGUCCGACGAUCAAAUACAUGGGAAAAGUGCUCCCCCUGGAAGAGUCACUGUCUGAAUGAAGCAAAGUUCCCUCUCAGCAAACACUGAGAGGCCAUGGAGAAGGACUUCUAGAAUGAAUGAAUGGAAUUCUCGGGUGCCAA	5.68
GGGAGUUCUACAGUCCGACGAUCUUUUGGUUCCACUUGGACAACAAACAGUAUUUGCAGAGUGAUUUCAGGAGAGAGCAGGUCUGAGGAAUAUGCAAAACUGUAGUUACUGUGUGGGCCAUUGACUGCCUUGAUGGAAUUCUCGGGUGCCAA	0.738
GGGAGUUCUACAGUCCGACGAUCCAUAAUUGAUAUCUUAUAGCUUUCAAGUAAAGUGUUUUCUAUAACUCAGAUAAUUAAUUUGAAGCAAGAAAGAAGGUAAAAAUGAGGUUUCCCAGCCAUGUUGCUGCUUUUGGAAUUCUCGGGUGCCAA	0.327
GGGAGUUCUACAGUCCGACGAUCACCCUCUUGCCCAGCCGGCUGCAAGUUUUGUAAGCGCGGACAGACACUGCUGAACCUUUCCUCUGGGACCCCCUGUGGCCCUCGCUCUGCCUCCUGUCCUUGUCGCUGUGUGGAAUUCUCGGGUGCCAA	0.347
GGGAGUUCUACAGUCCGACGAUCAUGCAAUAAUAAAAUCAGCAUCUGGGUCUUUGCAGCUGUCAGUUGUUCUUUAAACUCUAGGAUCCAUCUUUGGACCAAAAGUCUGGUCUGGGCCUAGGAUGGCAUUGGCCUGGAAUUCUCGGGUGCCAA	1.36
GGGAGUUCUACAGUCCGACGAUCUGGAAGACCUGUUUGAAAUUAGUCUUGAUUUCACACUCAUUUAAUCUGCUGAGCACAGGGCUGUUGUCAUUUGUAAACGCAAACACUGUGGAGGUACUUCUCGCCAUCAGUGGAAUUCUCGGGUGCCAA	0.245
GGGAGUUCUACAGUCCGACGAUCGAUCUCUGCUGCUGUGUCUUUAUCUACCCUUGCUAGCCCCGGCUCUGGUAGACCGUUCUGGAAUGGAGGGGCUAUGAUCGUCCUAGGACCUGUGCUACGGAGGGGUGGAGUGGAAUUCUCGGGUGCCAA	0.887

Series 3
Target: Fragile X messenger ribonucleoprotein 1, C-terminal low-complexity region (Fmr1, Mus musculus, UniProt P35922)
Technique: RNA Bind-n-Seq
Molecule type: RNA
Medium: in vitro
Tested at: 200 nM
Setting: whole 134-nt RNA, ends assumed
Together with: 150 mM LiCl
Baseline: input library
Reading: higher = stronger binding
All molecules: 7-deaza-guanosine replaces G
Strand	log2 enrichment
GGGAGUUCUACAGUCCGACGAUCCCUGUGCUACACAUCGUAUGUACCGAAUCGGUUUUUUUGGUUUUUUUGGGUUUUUUUGGGAAAGUAUUAUGUUACGCCGUUCGGAUCUGCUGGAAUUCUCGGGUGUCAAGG	-1.56
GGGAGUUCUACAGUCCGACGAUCUAACUUUAGAGGAGGAUCUGAUGGAUAUGGCAGUGGACGUGGAUUUGGGGAUGGCUAUAAUGGGUAUGGAGCAGGACCUGGAGGUGGCAAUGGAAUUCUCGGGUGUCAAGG	0.435
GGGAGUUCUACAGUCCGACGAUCUUGACCGGAGCGGCCGUCACUUUGGUACAAUCCUCAAUUACCUGCGGGAUGGGUCUGUGCCACUGCCGGAGAGUACGAGAGAACUGGGGGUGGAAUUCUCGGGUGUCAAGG	-1.73
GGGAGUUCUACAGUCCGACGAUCUGGCCCUGGUGGCAUGCGGGGAGGAAGGGGUGGCCUCAUGGAUCGUGGUGGUCCCGGUGGAAUGUUCAGAGGUGGCCGUGGUGGAGACAGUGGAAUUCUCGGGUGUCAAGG	0.0816
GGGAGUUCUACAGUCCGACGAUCGAAAUUUGGUUAUGUGGAUUUUGAAUCUGCUGAAGACCUGGAGAAAGCGUUGGAACUCACUGGUUUGAAAGUCUUUGGCAAUGAAAUUAAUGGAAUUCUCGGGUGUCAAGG	-3.98
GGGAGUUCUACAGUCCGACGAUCACCAUGCAGGUGGGCAUCUUUGGGAAGUGGGGCAAGGGGGGGAUAGGGAGGGGGGUAACACUUUGGGAACAGGUGGUCCCAGGUCGUAAAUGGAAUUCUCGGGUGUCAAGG	1.4
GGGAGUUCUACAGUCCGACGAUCGCAGGAAGUAAAAACAAAUGGAAAUGCUUCGGAUAGUGGCAAGGGUGGGGGUUGCUAAGGAAAGGGUGGGAUGGGAGUGGGUAAAGAGUUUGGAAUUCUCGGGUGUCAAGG	1.61
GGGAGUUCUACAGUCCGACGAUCCCUGUGCUACACAUCGUAUGUACCGAAUCGGGGUUUUUUGGGGUUUUUUGGGGUUUUUUGGAAAGUAUUAUGUUACGCCGUUCGGAUCUGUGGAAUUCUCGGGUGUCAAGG	0.898
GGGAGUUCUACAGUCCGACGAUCAGUCCUGUGCUACACAUCGUAUGUACCGAAUCGGCCCCCGGCCCCCGGGGCCCCCGGGAAAGUAUUAUGUUACGCCGUUCGGAUCUGCACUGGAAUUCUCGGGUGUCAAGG	-2.33
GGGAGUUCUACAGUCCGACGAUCAGUCCUGUGCUACACAUCGUAUGUACCGAAUCGGGAAAAAGGGAAAAAGGAAAAAGGGAAAGUAUUAUGUUACGCCGUUCGGAUCUGCACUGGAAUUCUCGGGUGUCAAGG	-0.896
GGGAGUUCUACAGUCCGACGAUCGCAGGAAGUAAAAACAAAUGGAAAUGCUUCGGAUAGUGGCAGGGGUGGGGGUUGCAAAGGAAAGGGUGGGAUGGGAGUGGGUAAAGAGUUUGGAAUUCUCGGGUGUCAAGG	1.35

Series 4
Target: Histone acetyltransferase KAT6A, winged helix 1, GST fusion (KAT6A, Homo sapiens, UniProt Q92794, residues 1-85)
Technique: protein binding microarray
Molecule type: double-stranded DNA, one strand shown
Medium: in vitro
Tested at: not given
Setting: 8-mer, flanks averaged, mean of 2 arrays, mostly near background
Baseline: not given
Reading: higher = stronger binding
Construct (chain): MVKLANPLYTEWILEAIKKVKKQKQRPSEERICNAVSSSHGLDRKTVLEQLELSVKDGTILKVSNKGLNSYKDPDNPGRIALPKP
Strand	E-score
AATGGCGA	-0.069
ACCAAGCC	-0.0159
CACCGACG	0.342
AAGCTACG	0.174
CCGTAACC	0.38
ATCTCCAT	-0.245
GCCCATGA	0.0276
ATCGTCAG	-0.233
ATTCGAAG	-0.152
ATGTCCTC	-0.13
CTGAGCGA	-0.0424
TAAATATA	-0.00921
AAACAGGA	-0.303
GATCGTGC	0.0477
AGACAATG	-0.153
GATATATC	-0.00802
AGAAGGCG	-0.0483

A few entries again (series 1):
Modification	mean fluorescence intensity [a.u.]
2'F-ANA at 1 2 3 4 5 6 9 11	54
2'F-ANA at 2 3 7 8 9 10 11 13 14 15	260
2'F-ANA at 1 2 4 5 6 7 8 10 11 12 14 15	52.9
2'F-ANA at 1 2 3 6 7 10 14 15	60.8
2'F-ANA at 1 2 6 7 8 9 12 13	265
